Published values collected from several papers.
Lines come from different studies, so protocols differ. ± gives the spread as reported.

With CC(Cc1ccc(Cl)cc1)=C(c1ccc(Cl)cc1)c1ccc(OCCN2CCCC2)cc1 the growth inhibition was 26.7% (NCI-60 tumour cell lines; 10 µM, mean over cell lines).
CC(C)(C)c1ccc2[c](c1)[Au-]1([C]#Cc3ccccc3)[c]3cc(C(C)(C)C)ccc3-c3cncc-2[n+]31 — result for cell proliferation: “not toxic” (HL-60; 10 µM, 72 h).
With CCC(=C(c1ccc(Cl)cc1)c1ccc(OCCN(CC)CC)cc1)c1ccc(Cl)cc1 the growth inhibition was 29.5% (NCI-60 tumour cell lines; 10 µM, mean over cell lines).
Cc1c2ccnc(C(=O)N[C@H](C)CN(C)C)c2cc2c3cc(OCCCN4CCN(C)CC4)ccc3n(C)c12: “r(G4C2)exp foci per nucleus” 0.1 ± 0.2 (C9orf72 ALS patient-derived LCLs; RNA FISH; 0.05 µM).
With COc1cc(CNC(=O)C[C@H](C)CCC=C(C)C)ccc1OCc1cn(-c2ccc(F)cc2)nn1 the growth percent was 64.4% (SF-295 CNS cancer cells; SRB; 10 µM, 48 h).
Under “NF-κB p65 protein level”, CCNc1cc2c(cc1C)C1(c3cc(C)c(NCC)cc3O2)c2ccccc2C(=O)N1N=Cc1c[c-]c(-c2ccccn2)cc1.Cc1c(C)c(-c2ccc(-c3ccccc3)cc2)[c-](C)c1C.[Cl-].[Ir+3] is recorded as “increased” (A549; flow cytometry; concentration not given, 24 h; relative to: untreated).
The growth inhibition of CCC(=C(c1ccc(Cl)cc1)c1ccc(OCCN2CCOCC2)cc1)c1ccc(OC)cc1 is reported as 6.9% (NCI-60 tumour cell lines; 10 µM, mean over cell lines).
With COc1cc(CNC(=O)C[C@H](C)CCC=C(C)C)ccc1OCc1cn(-c2ccc(C#N)cc2)nn1 the growth percent was 89.5% (HCC 2998; SRB; 10 µM, 48 h).
For [Cl][Pd-]1([Cl])[S]C(Nc2ccccc2)=N[N+]1=Cc1ccc(-c2ccccc2)s1, the cytotoxic concentration was ≥ 100 µM (HEL human lung fibroblasts; altered cell morphology, microscopy; confluent cultures).
For CC(=O)OC[C@H]1O[C@@H](Sc2nc3c4cnn(C(=O)CNc5ccc(C)cc5)c4ncn3n2)[C@H](OC(C)=O)[C@@H](OC(C)=O)[C@@H]1OC(C)=O, “late apoptotic cells” read 12.9% (HCT cells; annexin V-FITC/PI flow cytometry; concentration not given, 48 h).
With Cc1ccc(-c2cn([C@@H]3O[C@H](CO)[C@@H](O)[C@H]3O)c3ncnc(N)c23)c(F)c1 the EC50 was > 200 µM (HEK; cytotoxicity).
Under “IR and IRS-1 tyrosine phosphorylation”, CSCC[C@H](NC(=O)[C@H](CO)NC(=O)[C@@H](N)CO)C(=O)N[C@@H](CCCCN)C(=O)N[C@@H](CC(C)C)C(=O)N[C@@H](CO)C(=O)N[C@@H](Cc1ccccc1)C(=O)N[C@@H](CCCNC(=N)N)C(=O)N[C@@H](C)C(=O)N[C@@H](CCCNC(=N)N)C(=O)N[C@@H](C)C(=O)N[C@@H](Cc1ccc(O)cc1)C(=O)NCC(=O)N[C@@H](Cc1ccccc1)C(=O)N[C@@H](CCCNC(=N)N)C(=O)NCC(=O)N1CCC[C@H]1C(=O)NCC(=O)N1CCC[C@H]1C(=O)N[C@@H](CCC(N)=O)C(=O)N[C@@H](CC(C)C)C(=O)O is recorded as “no effect” (mouse primary hepatocytes; immunoblot; concentration not given).
COc1ccc2c(c1)C(=C1Nc3ccccc3C1=NOCC(O)CO)C(=O)N2 (stereo not shown) — result for protein level: “decreased” (PANC-1 and MIA PaCa-2; Western blot, item: Mcl-1; concentration not given, 24 h).
With COc1cc(CNC(=O)C[C@H](C)CCC=C(C)C)ccc1OCc1cn(-c2ccccc2)nn1 the growth percent was 62.3% (SR leukaemia cells; SRB; 10 µM, 48 h).
The necrotic cells of CSC(=NN=C(C)c1ccc(S(=O)(=O)N2CCC(C)CC2)cc1)N(C)C is reported as 3.12% (HepG2; annexin V/PI staining; IC50, 72 h).
CC1=CC(OC(=O)c2ccccc2)C2(COC(=O)c3ccccc3)CCC(=C(C)C)C2C(O)CC2(C)OC2CC1 (stereo not shown) gave a glucose consumption of 3.92 ± 0.61 mM (HepG2, palmitic acid-induced insulin resistance; 2.5 µM, 24 h).
For COc1cc(CNC(=O)C[C@H](C)CCC=C(C)C)ccc1O, the growth percent was 99.9% (OVCAR-8 ovarian cancer cells; SRB; 10 µM, 48 h).
With COc1cc(Cc2c[nH]c3ncc(C(F)(F)F)cc23)cc(OC)c1 the inhibition was 57% (4T1; cell growth or viability, MTT; 10 µM, 72 h).
CC(C)=CCc1c(O)cc2c(c1O)C(=O)OC2 has a glucose consumption of 9.15 ± 0.38 mM (HepG2, palmitic acid-induced insulin resistance; 10.0 µM, 24 h).
For COc1cc(CNC(=O)C[C@H](C)CCC=C(C)C)ccc1OCc1cn(-c2ccccc2[N+](=O)[O-])nn1, the growth percent was 31.7% (MDA-MB-468 breast cancer cells; SRB; 10 µM, 48 h).
Under “G2/M phase cells”, CO[C@H]1N(OC)c2ccccc2[C@@]12CN=C(Nc1cc(C(F)(F)F)cc(C(F)(F)F)c1)S2 (relative stereo) is recorded as 10.3 ± 1.29% (HCT-116; PI flow cytometry; 40 µM, 24 h).
COc1ccc([C@@H]2CC(=O)c3c(O)cc(O[C@@H]4O[C@H](CO[C@@H]5O[C@@H](C)[C@H](O)[C@@H](O)[C@H]5O)[C@@H](O[C@H]5O[C@H](CO)[C@@H](O)[C@H](O)[C@H]5O)[C@H](O)[C@H]4O)cc3O2)cc1O has a gap closure of 9.28 ± 1.49% (A549; cell migration, scratch; 50 µg/mL, 72 h).
The EC50 of Nc1ncnc2c1c(-c1ccc(OC(F)(F)F)cc1)cn2[C@@H]1O[C@H](CO)[C@@H](O)[C@H]1O is reported as > 200 µM (HEK; cytotoxicity).
COc1cc(CNC(=O)C[C@H](C)CCC=C(C)C)ccc1OCc1cn(-c2cccc([N+](=O)[O-])c2)nn1 has a growth percent of 92% (UACC-257 melanoma cells; SRB; 10 µM, 48 h).
Under “log2 fold change”, O=Cc1c(O)ccc2ccccc12 is recorded as -2.92 (HUVEC; RNA sequencing, item: TYMS; 75 µM, 24 h; relative to: DMSO).
Cc1c(OCc2ccccc2)c(=O)ccn1CCCOC(=O)c1ccccc1Cl has a potency ratio of ~16 fold (PC-12; cell growth, MTT; relative to: docetaxel over compound IC50).
For C[n+]1cn(C2OC(COP(=O)(O)OP(=O)([O-])OP(=O)(O)OCC3OC(n4cnc5c(=O)[nH]c(N)nc54)C(O)C3O)C(O)C2O)c2nc(NCc3ccccc3)[nH]c(=O)c21 (stereo not shown), “relative protein expression” read 1.8 ± 0.34 (HEK293 transfected with capped mRNA; luciferase expression; relative to: m7GpppG-capped mRNA).
CCNC(=O)Nc1ccc(S(=O)(=O)Oc2ccccc2CC)cc1: “CD11b positive cells” 38% (MOLM-13; differentiation, flow cytometry; 2-fold IC50, 120 h).
For COc1cc(CNC(=O)C[C@H](C)CCC=C(C)C)ccc1OCc1cn(-c2ccccc2Cl)nn1, the growth percent was 33.3% (OVCAR-4 ovarian cancer cells; SRB; 10 µM, 48 h).
COCCNCC(=O)N(CCCCN)CC(=O)N(CC(=O)N(CC(=O)N(CCCCN)CC(=O)N[C@@H](CCCCN)C(=O)N[C@H](CCCCN)C(=O)N[C@@H](CCSC)C(=O)NCCCC[C@H](NC(=O)[C@H](CCSC)NC(=O)[C@@H](CCCCN)NC(=O)[C@H](CCCCN)NC(=O)CN(CCCCN)C(=O)CN(C(=O)CN(Cc1ccc2c(c1)OCO2)C(=O)CN(CCCCN)C(=O)CNCCOC)[C@H](C)c1ccccc1)C(N)=O)[C@H](C)c1ccccc1)Cc1ccc2c(c1)OCO2: “antiproliferative onset concentration” 30 µM (H358; MTS; 6 days).
O=C1OCC2=C1C(c1cccc(Br)c1)C1=C(N2)C(=O)c2ccccc2C1=O (stereo not shown): “early apoptotic cells” 14% (SK-LU-1 cells; annexin V/PI; 0.32 µM, 24 h).
Under phosphorylation level, CCCCCCCCCCCCCCOc1c(O)cc(C(=O)O[C@@H]2Cc3c(O)cc(O)cc3O[C@@H]2c2cc(O)c(O)c(O)c2)cc1O is recorded as “decreased” (U-87 MG; Western blot, item: phospho-mTOR; 50 µM, 24 h; relative to: untreated).
For COc1cc(CNC(=O)C[C@H](C)CCC=C(C)C)ccc1OCc1cn(-c2ccc(Cl)c(Cl)c2)nn1, the growth percent was 80.5% (SF-295 CNS cancer cells; SRB; 10 µM, 48 h).
Under sphere formation, CN(C)c1ccc(/C=C/C(=O)c2ccc(S(=O)(=O)N3CCCCCC3)cc2)cc1[N+](=O)[O-] is recorded as “no effect” (patient-derived glioblastoma cells; 1.2 to 10 µM).
For CC(Cc1ccc(Cl)cc1)=C(c1ccc(Cl)cc1)c1ccc(OCCN(C)C)cc1, the GI50 was 4.34 µM (NCI-60 cell lines; NCI five-dose screen; median over 60 lines).
For CCN(CC)CC(=O)N1CCN(c2nc(NCc3nc4cc(Cl)c(Cl)cc4[nH]3)c3ncn(CC)c3n2)CC1, “cyclin K degradation” read ~100% (MDA-MB-231; western blot; 50 nM, 2 h).
The cytokine level of CC(=O)N[C@H](C(=O)N[C@H](C(=O)N[C@@H](CCCNC(=N)N)C(=O)N1Cc2ccccc2C[C@H]1C(=O)N[C@@H](Cc1ccccc1)C(N)=O)C1CCCCC1)C(C)C is reported as 739 ± 261 pg/mL (MBP-specific BC-3 T cells; Bio-Plex multiplex, item: IL-6; 200 µg/mL, 24 h, added: MBP87-99 antigen).
O=C1C[C@@H](c2ccc(O)c(O)c2)c2c(cc(O)c3c2O[C@H](c2ccc(O)c(O)c2)[C@H](O)C3)O1 — result for “glucose uptake stimulation”: 80.9 ± 3.26% (rat L6 myotubes; 10 µg/mL, 24 h).
For C=CC(=O)Nc1cc(Nc2nccc(-c3c(-c4cccc(OC)c4)n(C)c4ccccc34)n2)c(OC)cc1N(C)CCN(C)C, protein level read “increased” (H1975; Western blot, item: cleaved caspase-3; concentration not given, 24 h).
CCC12CCc3c(c4ccccc4n3C)CCN(CC3OC31)C2 (stereo not shown) — result for “Nrf2 protein level”: 4.45 fold (BV-2; western blot; 25 µM, added: LPS; relative to: LPS alone).
CC(=O)Nc1ccc(OC(=O)CCC(=O)[O][Pt-2]23([O]C(=O)CCC(=O)Oc4ccc(NC(C)=O)cc4)([NH2+][C@@H]4CCCC[C@H]4[NH2+]2)[O]C(=O)C(=O)[O]3)cc1 has an apoptotic cells of > 50% (4T1; annexin V/PI; 2 µM, 24 h).
CNC(=O)c1ccccc1Oc1nc(Nc2cc(OC)c(OC)c(OC)c2)ncc1Br: “adenylate energy charge” “no effect” (C2C12 myotubes; 10 to 50 µM, 1 h).
The growth inhibition of CCC(=C(c1ccc(Cl)cc1)c1ccc(OCCN(CC)CC)cc1)c1ccc(OC)cc1 is reported as 48% (NCI-60 tumour cell lines; 10 µM, mean over cell lines).
CC1=CC(C)=[N+]2C1=C(CCCCc1cn(C[C@@H]3[C@@H](O)[C@H](O)[C@@H](O)[C@@H]4O[C@H]34)nn1)c1c(C)cc(C)n1[B-]2(F)F: “labelled enzyme stability time” ≥ 48 h (human monocyte-derived macrophages; activity-based probe, item: recombinant GBA).
Under “apoptotic cells late”, CSC(=S)N/N=C(\C)c1ccc(S(=O)(=O)N2CCC(C)CC2)cc1 is recorded as 6.65% (HepG2; annexin V/PI staining; IC50, 72 h).
CC(C)=CCc1c(O)cc(CO)cc1O gave a glucose consumption of 4.77 ± 0.47 mM (HepG2, palmitic acid-induced insulin resistance; 10.0 µM, 24 h).
The relative potency of Cc1ccc(NS(=O)(=O)c2cccc(/C=C/C(=O)NO)c2)cc1 is reported as 1.99 (MOPC-315; cell growth; 24 h; relative to: belinostat).
For Cc1cc(/N=N/c2ccc(/N=N/c3ccc(O)c(C(=O)O)c3)cc2)c(N)cc1N, mRNA level read “increased” (primary mouse articular chondrocytes; real-time PCR, item: Prg4; 25 µM, micromass culture).
CC(=O)OC[C@H]1O[C@@H](Sc2sc(C(=O)c3ccc(C)cc3)c(N)c2-c2nc3ccccc3s2)[C@H](OC(C)=O)[C@@H](OC(C)=O)[C@H]1OC(C)=O gave a growth of 92.7% (M14; SRB; 10 µM, 48 h; relative to: untreated).
For Cc1cc(O)c2c(C(=O)[O-])[n+]3n(c2c1)CCCC3, the glucose consumption was 9.48 ± 0.93 mM (HepG2, palmitic acid-induced insulin resistance; 15 µM, 24 h).
CC[C@H](C)[C@H](NC(=O)[C@@H](NC(=O)[C@@H](NC(=O)[C@@H](N)C(C)C)C(C)C)[C@@H](C)CC)C(N)=O has a viability of 78.6% (PC-12; Aβ42-induced neurotoxicity, inhibitor, MTT; concentration not given, 6 h, 37 °C, peptide to Aβ42 1:1, added: Aβ42 2 µM; relative to: untreated cells).
Under “ROS positive cells”, COc1ccc(NC(=O)COc2ccc(/C=C/C(C)=N/O)cc2OC)cc1 is recorded as 5.53% (SH-SY5Y; DCFDA flow cytometry; 40 µM, added: amyloid beta 10 µM).

Repeated from above:
Cc1c2ccnc(C(=O)N[C@H](C)CN(C)C)c2cc2c3cc(OCCCN4CCN(C)CC4)ccc3n(C)c12: “r(G4C2)exp foci per nucleus” 0.1 ± 0.2 (C9orf72 ALS patient-derived LCLs; RNA FISH; 0.05 µM).
With COc1cc(CNC(=O)C[C@H](C)CCC=C(C)C)ccc1OCc1cn(-c2ccc(F)cc2)nn1 the growth percent was 64.4% (SF-295 CNS cancer cells; SRB; 10 µM, 48 h).
Under “NF-κB p65 protein level”, CCNc1cc2c(cc1C)C1(c3cc(C)c(NCC)cc3O2)c2ccccc2C(=O)N1N=Cc1c[c-]c(-c2ccccn2)cc1.Cc1c(C)c(-c2ccc(-c3ccccc3)cc2)[c-](C)c1C.[Cl-].[Ir+3] is recorded as “increased” (A549; flow cytometry; concentration not given, 24 h; relative to: untreated).
The growth inhibition of CCC(=C(c1ccc(Cl)cc1)c1ccc(OCCN2CCOCC2)cc1)c1ccc(OC)cc1 is reported as 6.9% (NCI-60 tumour cell lines; 10 µM, mean over cell lines).
